{"data": "Assay results from different studies", "organism": "Plasmodium falciparum", "note": "Protocols differ between the studies behind these lines. ± marks the error that the study gave."}
{"SMILES": "Cc1[nH]c2ccccc2c1C1CCN(CC2CCC(NC(=O)/C=C/c3ccc(Cl)c(Cl)c3)CC2)CC1 (stereo not shown)", "assay": "parasite growth", "system": "3D7", "setting": "72 h, asynchronous culture", "IC50": "≤ 50 nM"}
{"SMILES": "c1cncc(CCCOCCCCCCOC2CCCCO2)c1 (stereo not shown)", "assay": "anti-HRPII ELISA", "system": "W2 chloroquine-resistant", "setting": "72 h", "IC50": "53700 ± 700 nM"}
{"SMILES": "CCC1=C(C)C(=CNC23CC4CC(CC(C4)C2)C3)N=C1c1ccc[nH]1", "assay": "parasite growth", "system": "7G8, chloroquine-resistant", "IC50": "3.6 nM"}
{"SMILES": "[N-]=[N+]=NCCc1cc(CN(Cc2ccccn2)Cc2ccccn2)c(O)c(CN(Cc2ccccn2)Cc2ccccn2)c1", "assay": "growth, [3H]hypoxanthine incorporation", "system": "W2 chloroquine-resistant", "setting": "48 h", "IC50": "217 ± 64 nM"}
{"SMILES": "CC(C)C1=CC(=CNC2CCCCCCC2)N=C1c1ccc[nH]1", "assay": "parasite growth", "system": "Dd2, chloroquine-resistant", "IC50": "665 nM"}
{"SMILES": "CC[C@H](C)[C@@H]1NC(=O)[C@H](CCCNC(=N)N)NC(=O)[C@H](CCCNC(=N)N)NC(=O)[C@H](Cc2ccc(O)cc2)NC(=O)[C@H](CC(C)C)NC(=O)[C@@H]2CCCN2C(=O)[C@H](C)NC(=O)CNC(=O)CNC(=O)[C@H](CO)NC(=O)CNC(=O)CNC(=O)[C@H](CO)NC(=O)[C@H](CCC(=O)O)NC(=O)[C@H](CC(C)C)NC(=O)[C@H](CC(C)C)NC(=O)[C@H](CCCNC(=N)N)NC(=O)[C@H](CCCNC(=N)N)NC(=O)[C@H]([C@@H](C)CC)NC(=O)[C@H]([C@@H](C)CC)NC(=O)[C@H](CCCNC(=N)N)NC(=O)[C@H](CCCNC(=N)N)NC(=O)[C@H](Cc2ccc(O)cc2)NC(=O)[C@H](CC(C)C)NC(=O)[C@@H]2CCCN2C(=O)CNC(=O)CNC(=O)[C@@H](NC(=O)CN)CSSC[C@@H](C(N)=O)NC(=O)[C@H](CC(C)C)NC(=O)[C@H](CCCNC(=N)N)NC(=O)[C@H](CCCNC(=N)N)NC(=O)[C@H]([C@@H](C)CC)NC1=O", "assay": "parasite growth", "system": "3D7", "setting": "72 h, Albumax II medium, no serum", "IC50": "4800 ± 200 nM"}
{"SMILES": "COC1=CC(c2ccc[nH]2)=NC1=CNC1CCCC1", "assay": "parasite growth", "system": "7G8, chloroquine-resistant", "IC50": "45 nM"}
{"SMILES": "COC(=O)[C@@H]1Cc2c([nH]c3ccccc23)[C@@H](c2cccs2)N1", "assay": "parasite growth", "setting": "48 h, drug-resistant strain, blood stage", "IC50": "6.95 µg/mL"}
{"SMILES": "CC[C@H](C)[C@@H]1NC(=O)[C@H](CCCCN)NC(=O)[C@H](CCCCN)NC(=O)[C@H](Cc2ccc(O)cc2)NC(=O)[C@H](CC(C)C)NC(=O)[C@@H]2CCCN2C(=O)[C@H](C)NC(=O)CNC(=O)CNC(=O)[C@H](CO)NC(=O)CNC(=O)CNC(=O)[C@H](CO)NC(=O)[C@H](CCC(=O)O)NC(=O)[C@H](CC(C)C)NC(=O)[C@H](CC(C)C)NC(=O)[C@H](CCCCN)NC(=O)[C@H](CCCCN)NC(=O)[C@H]([C@@H](C)CC)NC(=O)[C@H]([C@@H](C)CC)NC(=O)[C@H](CCCCN)NC(=O)[C@H](CCCCN)NC(=O)[C@H](Cc2ccc(O)cc2)NC(=O)[C@H](CC(C)C)NC(=O)[C@@H]2CCCN2C(=O)[C@H](C)NC(=O)CNC(=O)[C@@H]2CSSC[C@H](NC(=O)[C@H](CC(C)C)NC(=O)[C@H](CCCCN)NC(=O)[C@H](CCCCN)NC(=O)[C@H]([C@@H](C)CC)NC1=O)C(=O)N[C@@H](CCC(=O)O)C(=O)N[C@@H](CO)C(=O)NCC(=O)N2", "assay": "parasite growth", "system": "3D7", "setting": "72 h, 5% serum plus Albumax II", "IC50": "37600 ± 3400 nM"}
{"SMILES": "CCc1c(-c2ccc[nH]2)c[nH]c1C=NC12CC3CC(CC(C3)C1)C2", "assay": "parasite growth", "system": "7G8, chloroquine-resistant", "IC50": "> 2500 nM"}
{"SMILES": "CC[C@H](C)[C@@H]1NC(=O)[C@H](CCCCN)NC(=O)[C@H](CCCCN)NC(=O)[C@H](Cc2ccc(O)cc2)NC(=O)[C@H](CC(C)C)NC(=O)[C@@H]2CCCN2C(=O)[C@H](C)NC(=O)CNC(=O)CNC(=O)[C@H](CO)NC(=O)CNC(=O)CNC(=O)[C@H](CO)NC(=O)[C@H](CCC(=O)O)NC(=O)[C@H](CC(C)C)NC(=O)[C@H](CC(C)C)NC(=O)[C@H](CCCCN)NC(=O)[C@H](CCCCN)NC(=O)[C@H]([C@@H](C)CC)NC(=O)[C@H]([C@@H](C)CC)NC(=O)[C@H](CCCCN)NC(=O)[C@H](CCCCN)NC(=O)[C@H](Cc2ccc(O)cc2)NC(=O)[C@H](CC(C)C)NC(=O)[C@@H]2CCCN2C(=O)[C@H](C)NC(=O)CNC(=O)[C@@H](NC(=O)CN)CSSC[C@@H](C(=O)N[C@@H](CCC(=O)O)C(=O)N[C@@H](CO)C(=O)O)NC(=O)[C@H](CC(C)C)NC(=O)[C@H](CCCCN)NC(=O)[C@H](CCCCN)NC(=O)[C@H]([C@@H](C)CC)NC1=O", "assay": "parasite growth", "system": "3D7", "setting": "72 h, 5% serum plus Albumax II", "IC50": "34300 ± 3200 nM"}
{"SMILES": "CN(C)c1ncnc2c1c(-c1ccc(Oc3ccccc3)cc1)cn2C1CCCC1", "assay": "merozoite invasion of erythrocytes", "system": "FVO", "IC50": "6000 nM"}
{"SMILES": "Clc1ccc(C2=CC(c3ccc[nH]3)=NC2=CNC2CCCC2)cc1", "assay": "parasite growth", "system": "Dd2, chloroquine-resistant", "IC50": "> 2500 nM"}
{"SMILES": "CC(C)(C)OC(=O)N[C@H](Cc1ccccc1)[C@@H](O)CN1CCC(N2CCCCC2)CC1", "assay": "blood-stage growth, SYBR Green I fluorescence", "system": "IPC4912 (MRA-1241) artemisinin-resistant", "setting": "72 h", "IC50": "785 ± 20.9 nM"}
{"SMILES": "S=C(Nc1ccccc1)c1cccc(C(=S)Nc2ccccc2)n1", "assay": "parasite growth, SYBR Green", "system": "DD2", "setting": "96 h, drug-resistant strain, blood stage", "IC50": "146 nM"}
{"SMILES": "CC1=N[C@H](C)Cc2c(-c3ccc4ccccc4c3)ccc(O)c21", "assay": "parasite growth, SYBR Green", "system": "W2", "setting": "96 h, drug-resistant strain, blood stage", "IC50": "866 nM"}
{"SMILES": "Clc1ccc2c(NCCCN3CCN(c4ccnc(N5CCCC5)n4)CC3)ccnc2c1", "assay": "parasite growth", "system": "W2", "setting": "72 h, drug-resistant strain, blood stage", "IC50": "30 nM"}
{"SMILES": "Cc1ccc2c(c1)[n+]([O-])c(C#N)c(-c1ccco1)[n+]2[O-]", "assay": "parasite growth, [3H]hypoxanthine incorporation", "system": "K1 chloroquine-resistant", "IC50": "560 ± 10 nM"}
{"SMILES": "CC1=CC(=CNC2CCCCCC2)N=C1c1ccc[nH]1", "assay": "parasite growth", "system": "7G8, chloroquine-resistant", "IC50": "2150 nM"}
{"SMILES": "CC[C@H](C)[C@@H]1NC(=O)[C@H](CCCCN)NC(=O)[C@H](CCCCN)NC(=O)[C@H](Cc2ccc(O)cc2)NC(=O)[C@H](CC(C)C)NC(=O)[C@@H]2CCCN2C(=O)[C@H](C)NC(=O)CNC(=O)CNC(=O)[C@H](CO)NC(=O)CNC(=O)CNC(=O)[C@H](CO)NC(=O)[C@H](CCC(=O)O)NC(=O)[C@H](CC(C)C)NC(=O)[C@H](CC(C)C)NC(=O)[C@H](CCCCN)NC(=O)[C@H](CCCNC(=N)N)NC(=O)[C@H]([C@@H](C)CC)NC(=O)[C@H]([C@@H](C)CC)NC(=O)[C@H](CCCCN)NC(=O)[C@H](CCCCN)NC(=O)[C@H](Cc2ccc(O)cc2)NC(=O)[C@H](CC(C)C)NC(=O)[C@@H]2CCCN2C(=O)CNC(=O)CNC(=O)[C@@H](NC(=O)CN)CSSC[C@@H](C(N)=O)NC(=O)[C@H](CC(C)C)NC(=O)[C@H](CCCCN)NC(=O)[C@H](CCCNC(=N)N)NC(=O)[C@H]([C@@H](C)CC)NC1=O", "assay": "parasite growth", "system": "3D7", "setting": "72 h, Albumax II medium, no serum", "IC50": "5100 ± 200 nM"}
{"SMILES": "C1=CC(c2ccc[nH]2)=NC1=CNC1CCCCCC1", "assay": "parasite growth", "system": "7G8, chloroquine-resistant", "IC50": "> 2500 nM"}
{"SMILES": "COc1cc2c3cc1Oc1cc(ccc1O)CC1c4c(cc(OC)c(O)c4Oc4ccc(cc4)CC3N(C)CC2)CCN1C (stereo not shown)", "assay": "parasite growth, SYBR green I", "system": "Cam3.1 R539T (MRA1240)", "IC50": "3010 ± 269 nM"}
